Measured values gathered from unrelated publications.
Each numbered part is a random draw from the data of one study; scales do not carry over between parts.

Sample 1 — method: protein-binding microarray; molecule type: double-stranded DNA, one strand shown; matrix: in vitro; tested at: 2540 nM top; setting: 60-bp whole probe; with: salmon DNA 0.4 mg/ml; relative to: random background probes; reading: higher = stronger binding; constant ends, left off below: GCCTAGCAC … GTCTTGATTCGCTTGACGCTGCTG
Target: Interferon regulatory factor 3, full length, phosphomimetic (IRF3, Homo sapiens, UniProt Q14653, residues 1-427, S386D/S396D/S398D/S402D/T404D/S405D)
Target sequence (chain): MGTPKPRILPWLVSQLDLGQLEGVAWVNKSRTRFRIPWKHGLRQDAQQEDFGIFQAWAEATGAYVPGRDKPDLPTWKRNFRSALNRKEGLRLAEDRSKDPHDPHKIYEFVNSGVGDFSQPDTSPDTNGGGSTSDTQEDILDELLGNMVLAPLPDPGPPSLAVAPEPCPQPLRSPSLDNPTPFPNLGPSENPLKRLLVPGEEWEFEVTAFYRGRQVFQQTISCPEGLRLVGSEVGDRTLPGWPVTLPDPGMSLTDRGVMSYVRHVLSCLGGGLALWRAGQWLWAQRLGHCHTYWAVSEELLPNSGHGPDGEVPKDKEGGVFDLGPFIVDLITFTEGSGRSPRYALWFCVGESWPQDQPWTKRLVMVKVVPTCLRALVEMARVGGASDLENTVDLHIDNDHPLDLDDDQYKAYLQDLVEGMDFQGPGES
Sequence | fitted relative affinity
GACGGTTTCGACACTGGGGAGGTGCTA | 3.23 z-score
CAAGTTACGGAATTTCCCTCTGTGCTA | 1.64 z-score
GAAGAACTGGGGTATCGAGACGTGCTA | -0.801 z-score
AGTTGTTTTAAATTCTAATTGTGCTAG | 1.33 z-score
GACGGACTGGACTTTCGGGCCGTGCTA | -0.52 z-score
GACGGCCTCGGACTGGGGACGTGCTAG | -0.886 z-score
TTAGGTATCGGGTTTCGGTTTGTGCTA | 5.21 z-score
TTAGGTTTCGGGTTTCGTTTAGTGCTA | 5.94 z-score
TTGGGTTCCGGTTTCGGTTAGTGCTAG | 7.11 z-score
TTCGGTATCGGGTATCGGTTAGTGCTA | 2.82 z-score
GACGATATCAGTCTGGAGACGTGCTAG | 0.187 z-score
GGTCTTCTGGACTGTTTGGTCGTGCTA | -0.198 z-score
GACGATCTCAGTCGCGAGACGTGCTAG | 0.0974 z-score
TCACATTTTGGTTTTCTACTGTGCTAG | 1.91 z-score
GACGATCTCAGACTGGCGACGTGCTAG | 0.501 z-score
TCACACTTGTGTTTGGGACTGTGCTAG | 0.00543 z-score
GACTGTCTCGGTATCGGGACGTGCTAG | 1.75 z-score
GACGATTTCGAGTATCGAGACGTGCTA | 1.32 z-score
CGTCATTTCACAGTTAACCAGTGCTAG | 1.27 z-score
GGGGTTAGGGTCATTCATTCGTGCTAG | -0.556 z-score
GACGGTCTGGGGACTGGGGACGTGCTA | -0.972 z-score
GACGGTTTCGACTATCAGGACGTGCTA | 3.21 z-score
TCATTTTTTTATTTATAACTGTGCTAG | 1.54 z-score
TTAGGTAACGACTTTCGGTTAGTGCTA | 1.71 z-score
TTAGAACTGGGGTTTCGATTAGTGCTA | 1.4 z-score

Sample 2 — organism: Saccharomyces cerevisiae; read-out: binding; method: competitive growth deep sequencing; molecule type: peptide; strain: cyclin D2-Cln2 fusion strain; tested at: concentration not given; setting: peptide tiling library; reading: direction not given
Molecule | growth enrichment score
TRRRLFVENDSP | -0.832
DGCSPIKNWSPMRL | 0.707
QNPCGSKACRRLFGPV | -0.854
KDDDKAWEYEERDRRS | 0.559
RNRGPKLNAMLRLGVL | -2.87
TSPGPVLLHPSPSTTQ | 0.918
AEHPKPSACRNLFGPV | -0.149
NFETPEAETPIRSPFK | -0.588
VRDLSYRLVFLACCVA | -1.56
VLVRTSACRSLFGPVD | -0.569
SGYLTDENEVGFRG | 0.391
PQWPCGKHKRVLIFAS | -1.51
VLPGGVPSPGASLTSM | 0.428

Sample 3 — method: RNA Bind-n-Seq; molecule type: RNA; matrix: in vitro; tested at: 365 nM; relative to: no-protein control; reading: higher = stronger binding
Target: RNA binding protein fox-1 homolog 2, RRM domain, GST-SBP tag (RBFOX2, Homo sapiens, UniProt O43251-10, residues 100-194)
Setting: natural RNA segment, single round, ends assumed
Construct (chain): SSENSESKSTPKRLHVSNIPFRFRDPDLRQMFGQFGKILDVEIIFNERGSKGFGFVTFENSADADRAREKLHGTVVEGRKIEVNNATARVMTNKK
Sequence | RBNS enrichment (R)
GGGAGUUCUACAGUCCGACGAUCCUGGGAGGGAAUGAGGUUCCACUCAUUGUCUCGUGACUUCCAUCCCUGCUGAACGGGGCUGCAAGGCCAAGGCUCCUUAAGGGAGGUCCUUACCUCCAAUCCAGUUAGAGUGGAAUUCUCGGGUGCCAA | 0.32
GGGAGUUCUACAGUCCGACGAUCUGUGGGACUGUCAUGGCAUUUAGUUCAGAGUGGAGGGGCUUUGGCCUGAAAUAAAAUGCAAGUAUUUAAGAUUGUUGUUGCAAUUUGUGUCUAACAAGCUGUAGCAGAGAUGGAAUUCUCGGGUGCCAA | 0.819
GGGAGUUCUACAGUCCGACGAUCUCUCUCCCUUCCCUUACCUGGCCCCUUGGUGCUCCUUCAGCAUUUGUGCUGUCUACCUCUCACUGGGUCCUGGUGGGGGUCGGGCUCCCUUCUCCUGGGGUGAUUGAUGGUGGAAUUCUCGGGUGCCAA | 0.4
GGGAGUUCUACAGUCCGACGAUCAAUGGUUAAACUAAAGAGCUUCUGCACAGCAAAAGAAACUACCAUCAGAGUGAACAGGCAACCUACAACAUGGGAGAAAAUUUUCGCAACCUACUCAUCUGACAAAGGGCUGGAAUUCUCGGGUGCCAA | 0.3
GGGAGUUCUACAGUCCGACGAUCCCACGAUGAUUUUCCUCUCUUUGAUGUACUUCAAGUGCAACUCAAAACUAUAUCUGCAGGGAUGAAUCUGUAACUUAAAUUGGGCCAAUCAGAAUUGUUAUCUUUGUUCAUGGAAUUCUCGGGUGCCAA | 0.427
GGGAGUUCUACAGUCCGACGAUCAAUCCAUGUCUAUAAUCUACCAACAAAGAUGUACUCUUAAACUCAGUAUCACCAGGCACUAUAUUUCAUCUUUGAGGCUUUUGUUAUACCAAGGAAUACUAUAUAAAGUAUGGAAUUCUCGGGUGCCAA | 0.343
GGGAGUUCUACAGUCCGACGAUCCAAUACUUAUCUAAAACUAUACAUUUAGAAUGGAGCAGUUUAAUACUAGAUCUCAGAAGUUUUGAAAAAUAGCAAAGAAGACUGGAUUUGGAAAGCAUGGUCUACAAUUGUGGAAUUCUCGGGUGCCAA | 9.78
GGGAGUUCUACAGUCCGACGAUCAAGGCAAACCCAUGGUCACAGCAGGCCAUUUAGAGACUGAGUGGGCGGGGCACUUACCAUCCCUUCCACAAAGGAUAGCUUCCCCCAGCUCAAAAUGUAACUGUUUCUAAUGGAAUUCUCGGGUGCCAA | 0.28
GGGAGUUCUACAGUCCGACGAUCAUUCUUUGUGUAUUGAUUACUAUAUAUAGACAUCUAAGAGGUUAAUUAUUGAUCAAGAAGACAGGUUUGUUUCCUAAUUAGCACACCCUGACUUCACUCAUUUGCUUUCUUGGAAUUCUCGGGUGCCAA | 0.747
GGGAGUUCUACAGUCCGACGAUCAAGGAAAAAGGCUAAUCUAAGUUCCUGCGGGCAGUGGCAUGACUGGAGCACAGCCUCCUGCCUCCCAGCCCGGACCCAAUGCACUUUCUUGUCUCCUCUAAUAAGCCCCAUGGAAUUCUCGGGUGCCAA | 0.592
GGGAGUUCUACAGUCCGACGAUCCCUGUUCCCCAGAGUUGUCCCUGUAGUGUCUAGGUUUAUUCUAAUGGUAAAAGUAACUUACUUAAAAAACAUAUGUACACAUAUGUAUGCAAGUAUGUAUAUAUGUGUAUUGGAAUUCUCGGGUGCCAA | 1.09
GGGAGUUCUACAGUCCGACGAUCAUACUUUUAAUGGUAAGAAAUGAACUUGAGGUCCCAGGAGGUUUUGUUGCCUUUUCAUUGAUUAGAGACAAUAAAUAUCUUGUAACUUCCUAACCAGAUCUGAGCUGUGCUGGAAUUCUCGGGUGCCAA | 0.289

Sample 4 — method: RNA Bind-n-Seq; molecule type: RNA; matrix: in vitro; tested at: 200 nM; setting: whole 134-nt RNA, ends assumed; with: 150 mM LiCl; relative to: input library; reading: higher = stronger binding; library: 7-deaza-guanosine replaces G
Target: Fragile X messenger ribonucleoprotein 1, C-terminal low-complexity region (Fmr1, Mus musculus, UniProt P35922)
Sequence | log2 enrichment
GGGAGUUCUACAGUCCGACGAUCGUCCUGUGCUACACAUCGUAUGUACCGAAUCGGCCCCCCGGGGCCCCCCGGCCCCCCGGAAAGUAUUAUGUUACGCCGUUCGGAUCUGCAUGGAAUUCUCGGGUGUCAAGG | -1.67
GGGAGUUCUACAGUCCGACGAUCGCAGGAAGUAAAAACAAAUGGAAAUGCUUGGGAUAGUGGCAGGGGUGGGGGUUGCUAAGGAAAGGGUGGGAUGGGAGUGGGUAAAGAGUUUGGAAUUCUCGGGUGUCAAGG | 1.59
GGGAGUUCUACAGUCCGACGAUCCACAGACAAAACGCACCCACACAGACACAGAGGGAAGGGGUUGGGAUGGGGACAGGGUGCACAGCAGGGCGGGGUAGGACCCCAGCCCCUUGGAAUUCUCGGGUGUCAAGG | 0.255
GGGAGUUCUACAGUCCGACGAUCGUCAAGAAAGAUCUUAAGACUGGUCAUUCAAAGGGGUUUGGCUUUGUUCGUUUUACGGAAUAUGAAACACAAGUGAAAGUAAUGUCACAGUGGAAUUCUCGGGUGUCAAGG | -2.12
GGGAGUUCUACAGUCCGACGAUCAAGUCCUGUGCUACACAUCGUAUGUACCGAAUCGGGAAAGGGUGGGAAAAAAAGGGAAAGUAUUAUGUUACGCCGUUCGGAUCUGCACUUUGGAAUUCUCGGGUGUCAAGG | -1.07
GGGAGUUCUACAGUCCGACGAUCUGGCCCUGGUGGCAUGCGGGGAGGAAGAGGUGGCCUCAUGGAUCGUGGUCGUCCCGGUGGAAUGUUCAGAGGUGGCCGUGGUGGAGACAGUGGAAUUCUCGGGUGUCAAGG | 0.119
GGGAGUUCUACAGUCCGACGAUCAAGUCCUGUGCUACACAUCGUAUGUACCGAAUCGGGAAAGGGAAAAAAAGGGUGGGAAAGUAUUAUGUUACGCCGUUCGGAUCUGCACUUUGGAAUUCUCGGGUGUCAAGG | -0.901
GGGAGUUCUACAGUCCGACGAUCGCAGGAAGUAAAAACAAAUGGAAAUUCUUCGGAUAGUGGCAGGGGUGGGGGUUGCUAAGGAAAGGGUGGGAUGGGAGUGGGUAAAGAGUUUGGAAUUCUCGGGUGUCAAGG | 1.58
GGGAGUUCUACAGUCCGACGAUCGCAGGAAGUAAAAACAAAUGGAAAUGCUUCGGAUAGUGGAAAGGGUGGGGGUUGCUAAGGAAAGGGUGGGAUGGGAGUGGGUAAAGAGUUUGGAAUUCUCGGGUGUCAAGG | 1.38
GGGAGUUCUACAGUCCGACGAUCAAGUCCUGUGCUACACAUCGUAUGUACCGAAUCAAAUUUAAAUUUUUAAAUUUAAAAAAGUAUUAUGUUACGCCGUUCGGAUCUGCACUUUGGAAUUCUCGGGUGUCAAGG | -3.37
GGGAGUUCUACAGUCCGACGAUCUCCUCAAGUCCUGUGCUACACAUCGUAUGUACCGAAUCGGUGGAGGUUUGGAAAGUAUUAUGUUACGCCGUUCGGAUCUGCACUUCCAGCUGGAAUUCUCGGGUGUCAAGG | -1.5

A few entries again (sample 1):
Sequence | fitted relative affinity
GGTCTTCTGGACTGTTTGGTCGTGCTA | -0.198 z-score
GACGGTTTCGACTATCAGGACGTGCTA | 3.21 z-score
TTGGGTTCCGGTTTCGGTTAGTGCTAG | 7.11 z-score
AGTTGTTTTAAATTCTAATTGTGCTAG | 1.33 z-score
GACGATCTCAGACTGGCGACGTGCTAG | 0.501 z-score
TCACACTTGTGTTTGGGACTGTGCTAG | 0.00543 z-score
CGTCATTTCACAGTTAACCAGTGCTAG | 1.27 z-score
GACGATCTCAGTCGCGAGACGTGCTAG | 0.0974 z-score
